Results from different studies.
Each line is one published result; not all experiments were run side by side. ± gives the spread as reported.
GBA2: Beta-glucosidase (GBA2, Homo sapiens, UniProt Q9HCG7)

By UniProt entry, the sequences of proteins in these tests, tags left out. Residues count along the entry.
UniProt Q9HCG7, whole entry: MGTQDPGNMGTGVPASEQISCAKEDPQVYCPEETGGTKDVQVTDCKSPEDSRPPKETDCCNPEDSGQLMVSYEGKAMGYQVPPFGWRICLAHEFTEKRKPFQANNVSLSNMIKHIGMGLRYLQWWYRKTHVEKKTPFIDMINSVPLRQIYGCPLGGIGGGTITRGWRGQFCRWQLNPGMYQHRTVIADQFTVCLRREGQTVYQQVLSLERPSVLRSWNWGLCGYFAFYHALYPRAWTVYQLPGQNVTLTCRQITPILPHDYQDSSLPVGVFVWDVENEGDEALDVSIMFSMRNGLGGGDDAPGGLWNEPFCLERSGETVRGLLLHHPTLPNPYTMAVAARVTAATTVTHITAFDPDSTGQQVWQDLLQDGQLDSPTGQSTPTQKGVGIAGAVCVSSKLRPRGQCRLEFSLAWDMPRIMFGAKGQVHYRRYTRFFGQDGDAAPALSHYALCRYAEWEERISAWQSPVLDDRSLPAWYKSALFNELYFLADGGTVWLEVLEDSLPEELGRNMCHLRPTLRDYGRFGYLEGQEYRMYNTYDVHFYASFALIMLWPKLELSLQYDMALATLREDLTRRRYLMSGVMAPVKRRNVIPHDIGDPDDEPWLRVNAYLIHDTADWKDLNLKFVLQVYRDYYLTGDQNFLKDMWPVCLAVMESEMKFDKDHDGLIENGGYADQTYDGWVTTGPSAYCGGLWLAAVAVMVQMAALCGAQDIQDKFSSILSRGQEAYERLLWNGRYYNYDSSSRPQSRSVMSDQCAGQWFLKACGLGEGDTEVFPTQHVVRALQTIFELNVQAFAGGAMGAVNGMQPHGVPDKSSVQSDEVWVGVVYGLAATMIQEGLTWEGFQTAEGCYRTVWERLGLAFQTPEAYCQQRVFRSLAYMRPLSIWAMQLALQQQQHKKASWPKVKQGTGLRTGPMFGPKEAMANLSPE
UniProt P42574, 29-175 limits assumed: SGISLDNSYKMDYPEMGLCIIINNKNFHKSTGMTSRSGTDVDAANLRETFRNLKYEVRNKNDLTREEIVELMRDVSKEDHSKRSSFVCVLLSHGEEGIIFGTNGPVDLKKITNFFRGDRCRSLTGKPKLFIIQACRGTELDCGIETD
UniProt P42574, 176-277 limits assumed: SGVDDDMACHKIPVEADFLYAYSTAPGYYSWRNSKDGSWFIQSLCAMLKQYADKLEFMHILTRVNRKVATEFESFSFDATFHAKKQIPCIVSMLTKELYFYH
UniProt P41148, 22-804 limits assumed: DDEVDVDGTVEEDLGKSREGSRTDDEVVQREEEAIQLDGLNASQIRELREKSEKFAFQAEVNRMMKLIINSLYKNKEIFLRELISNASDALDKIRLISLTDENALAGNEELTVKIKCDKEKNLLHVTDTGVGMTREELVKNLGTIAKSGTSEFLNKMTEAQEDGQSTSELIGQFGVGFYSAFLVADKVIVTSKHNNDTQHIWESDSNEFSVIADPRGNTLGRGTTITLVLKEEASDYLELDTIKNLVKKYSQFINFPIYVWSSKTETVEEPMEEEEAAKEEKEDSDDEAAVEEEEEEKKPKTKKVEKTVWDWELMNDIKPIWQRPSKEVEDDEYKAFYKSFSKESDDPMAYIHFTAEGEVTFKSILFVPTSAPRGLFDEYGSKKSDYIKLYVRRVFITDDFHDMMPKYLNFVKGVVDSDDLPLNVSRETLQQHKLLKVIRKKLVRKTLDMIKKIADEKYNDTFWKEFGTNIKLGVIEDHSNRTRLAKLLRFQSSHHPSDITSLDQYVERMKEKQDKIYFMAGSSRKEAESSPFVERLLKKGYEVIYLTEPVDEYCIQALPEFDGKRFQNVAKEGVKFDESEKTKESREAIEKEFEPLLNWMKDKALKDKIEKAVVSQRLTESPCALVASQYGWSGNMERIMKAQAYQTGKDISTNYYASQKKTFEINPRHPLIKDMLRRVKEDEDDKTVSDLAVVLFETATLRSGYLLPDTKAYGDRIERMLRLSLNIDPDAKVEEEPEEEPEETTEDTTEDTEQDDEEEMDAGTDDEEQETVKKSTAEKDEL
UniProt P46116, whole entry: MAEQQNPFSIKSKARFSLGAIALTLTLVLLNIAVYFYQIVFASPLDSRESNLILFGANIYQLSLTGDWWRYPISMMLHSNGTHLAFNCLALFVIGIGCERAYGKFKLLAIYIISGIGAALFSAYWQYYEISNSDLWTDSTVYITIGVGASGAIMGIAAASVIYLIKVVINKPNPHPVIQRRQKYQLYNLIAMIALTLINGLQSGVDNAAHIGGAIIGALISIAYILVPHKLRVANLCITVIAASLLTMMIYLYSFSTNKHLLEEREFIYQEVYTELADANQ
UniProt Q6P5Z2, whole entry: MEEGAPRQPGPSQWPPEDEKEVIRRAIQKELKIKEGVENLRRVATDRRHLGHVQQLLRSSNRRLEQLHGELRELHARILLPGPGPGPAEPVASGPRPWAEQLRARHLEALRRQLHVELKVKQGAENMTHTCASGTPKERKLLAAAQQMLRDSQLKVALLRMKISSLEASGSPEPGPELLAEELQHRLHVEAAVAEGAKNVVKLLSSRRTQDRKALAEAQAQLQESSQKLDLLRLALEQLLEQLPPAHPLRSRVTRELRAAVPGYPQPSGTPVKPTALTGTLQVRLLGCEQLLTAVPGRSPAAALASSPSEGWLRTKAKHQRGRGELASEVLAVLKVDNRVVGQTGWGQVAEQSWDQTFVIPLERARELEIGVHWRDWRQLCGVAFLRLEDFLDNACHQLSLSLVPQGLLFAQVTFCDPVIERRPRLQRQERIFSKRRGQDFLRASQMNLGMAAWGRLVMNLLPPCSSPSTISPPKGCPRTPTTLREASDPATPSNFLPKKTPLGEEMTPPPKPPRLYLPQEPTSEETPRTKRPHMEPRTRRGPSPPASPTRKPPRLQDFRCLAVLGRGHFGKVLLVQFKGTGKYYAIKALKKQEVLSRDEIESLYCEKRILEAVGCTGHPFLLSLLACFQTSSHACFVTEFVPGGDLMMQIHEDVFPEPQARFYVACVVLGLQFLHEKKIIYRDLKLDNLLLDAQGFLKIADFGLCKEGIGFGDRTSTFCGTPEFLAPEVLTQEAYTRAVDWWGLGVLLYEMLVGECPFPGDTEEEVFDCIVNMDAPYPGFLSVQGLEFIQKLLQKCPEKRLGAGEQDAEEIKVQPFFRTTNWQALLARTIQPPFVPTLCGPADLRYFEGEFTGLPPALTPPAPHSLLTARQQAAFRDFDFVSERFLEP
UniProt P17655, whole entry: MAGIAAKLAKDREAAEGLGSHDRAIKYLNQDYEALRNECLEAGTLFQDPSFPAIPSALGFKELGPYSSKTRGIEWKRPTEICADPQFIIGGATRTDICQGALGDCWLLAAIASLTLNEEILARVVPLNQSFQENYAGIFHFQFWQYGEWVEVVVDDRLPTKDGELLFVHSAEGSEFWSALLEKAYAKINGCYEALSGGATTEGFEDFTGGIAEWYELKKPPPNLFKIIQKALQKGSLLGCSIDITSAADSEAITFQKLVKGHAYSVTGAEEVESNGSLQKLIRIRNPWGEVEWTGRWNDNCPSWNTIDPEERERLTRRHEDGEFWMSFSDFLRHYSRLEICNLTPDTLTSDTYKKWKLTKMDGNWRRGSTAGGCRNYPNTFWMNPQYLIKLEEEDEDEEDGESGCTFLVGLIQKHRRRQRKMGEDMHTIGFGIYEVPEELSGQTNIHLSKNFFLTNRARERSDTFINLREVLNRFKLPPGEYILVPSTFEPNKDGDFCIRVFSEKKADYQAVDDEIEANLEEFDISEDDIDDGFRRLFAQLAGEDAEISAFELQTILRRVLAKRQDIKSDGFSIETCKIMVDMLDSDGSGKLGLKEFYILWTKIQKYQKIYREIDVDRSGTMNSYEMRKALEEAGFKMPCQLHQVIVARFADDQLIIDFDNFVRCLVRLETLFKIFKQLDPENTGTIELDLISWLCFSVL
UniProt O15379, whole entry: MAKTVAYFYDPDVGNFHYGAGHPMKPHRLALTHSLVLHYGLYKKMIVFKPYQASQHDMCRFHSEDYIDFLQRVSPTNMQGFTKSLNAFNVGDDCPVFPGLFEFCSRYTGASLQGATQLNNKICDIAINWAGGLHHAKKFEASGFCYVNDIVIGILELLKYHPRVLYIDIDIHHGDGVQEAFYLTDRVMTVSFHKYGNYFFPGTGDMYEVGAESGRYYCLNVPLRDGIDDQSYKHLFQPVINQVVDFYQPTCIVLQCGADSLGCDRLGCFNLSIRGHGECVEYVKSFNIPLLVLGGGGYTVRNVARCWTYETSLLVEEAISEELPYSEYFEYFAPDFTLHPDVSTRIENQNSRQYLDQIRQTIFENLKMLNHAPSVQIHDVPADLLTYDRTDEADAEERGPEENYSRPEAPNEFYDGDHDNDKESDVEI
UniProt P34969, 1-445 isoform 2: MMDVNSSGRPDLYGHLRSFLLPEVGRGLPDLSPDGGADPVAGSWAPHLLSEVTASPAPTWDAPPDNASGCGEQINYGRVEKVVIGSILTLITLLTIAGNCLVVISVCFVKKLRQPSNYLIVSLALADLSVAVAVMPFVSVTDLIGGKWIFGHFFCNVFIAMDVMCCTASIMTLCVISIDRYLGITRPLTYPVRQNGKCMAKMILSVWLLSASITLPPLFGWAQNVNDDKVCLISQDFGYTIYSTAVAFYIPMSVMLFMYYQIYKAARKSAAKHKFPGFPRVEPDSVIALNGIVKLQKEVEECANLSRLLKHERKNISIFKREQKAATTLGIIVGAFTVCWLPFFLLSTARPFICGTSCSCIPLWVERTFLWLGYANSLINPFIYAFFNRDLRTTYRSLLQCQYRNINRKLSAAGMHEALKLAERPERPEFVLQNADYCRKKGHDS
UniProt Q01727, whole entry: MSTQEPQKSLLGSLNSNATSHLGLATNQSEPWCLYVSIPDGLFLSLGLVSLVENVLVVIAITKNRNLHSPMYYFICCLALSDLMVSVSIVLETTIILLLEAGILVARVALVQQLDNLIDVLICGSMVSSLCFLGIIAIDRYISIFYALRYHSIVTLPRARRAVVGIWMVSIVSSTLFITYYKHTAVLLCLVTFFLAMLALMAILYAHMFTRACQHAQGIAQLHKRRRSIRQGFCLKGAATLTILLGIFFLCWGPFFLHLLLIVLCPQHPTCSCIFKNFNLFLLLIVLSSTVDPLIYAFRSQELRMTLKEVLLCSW
UniProt Q9Y618, 395-489 partner limits assumed: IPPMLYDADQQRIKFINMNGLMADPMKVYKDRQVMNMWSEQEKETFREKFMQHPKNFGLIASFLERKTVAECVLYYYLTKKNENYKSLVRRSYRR

C[C@@H](CC(=O)NCc1cccc2ccccc12)NC(=O)[C@H](CC(=O)NC(C)(C)C)NC(=O)OC(C)(C)C
selectivity ratio (Proteasome component C5/PSMB8 (Homo sapiens, UniProt P20618+P28062); enzyme activity; reference: IC50 PSMB5 over IC50 PSMB8): > 600

CC(=O)N[C@H](C(=O)N[C@@H](CC(=O)O)C(=O)N[C@H](C(=O)N1CCc2cc(C)ccc2[C@@H]1C(=O)N[C@H](C=O)CC(=O)O)C(C)C)C(C)C
selectivity ratio (Caspase-3 (CASP3, Homo sapiens, UniProt P42574); enzyme activity, inhibitor; reference: Ki CASP3 over Ki caspase-2): > 9

COC(=O)c1c(O)cc(O)c(Cl)c1CCc1ccccc1Cc1cccc(Cl)c1
selectivity ratio (Endoplasmin (HSP90B1, Canis lupus familiaris, UniProt P41148); fluorescence polarization; with: FITC-geldanamycin tracer; reference: Grp94 over Hsp90α): 4 fold

COc1ccc2c3c(cccc13)C(=O)N(C)C2=O
selectivity ratio (Rhomboid protease AarA (Providencia stuartii, UniProt P46116); reference: IC50 chymotrypsin over IC50 AarA): 0.6

COc1cc(Nc2ccnc3ccc(Br)cc23)cc(OC)c1OC
selectivity ratio (PKN3 (Homo sapiens, UniProt Q6P5Z2); binding; reference: GAK Ki over PKN3 IC50): 3 fold

CCC(NC(=O)C(CC(C)C)NC(=O)Cc1ccncc1)C(=O)C(=O)NCc1cc(OC)cc(OC)c1 (centres unmarked)
selectivity ratio (Calpain-2 catalytic subunit (Homo sapiens, UniProt P17655); enzyme activity, inhibitor, Suc-Leu-Tyr-AMC hydrolysis; reference: Ki calpain-1 over calpain-2): 1.5

OC[C@H]1[C@@H](O)[C@H](O)[C@@H](O)CN1CCCCCOCc1ccc(Br)cc1
selectivity ratio (GBA2; reference: GCS IC50 over GBA2 IC50): 84

C/C=C/Cn1c(Cc2cc(OC)c(OC)c(OC)c2)nc2c(N)ncnc21
selectivity ratio (human Hsp90α and Hsp90β NTD; binding, isothermal titration calorimetry; Hsp90α residues 1-236; reference: Kd Hsp90β over Hsp90α): 2.1 ± 0.3 fold

OC[C@@H]1[C@@H](O)[C@H](O)[C@@H](O)CN1CCCCCOCc1ccc(-c2cccnc2)cc1
selectivity ratio (GBA2; reference: GBA1 IC50 over GBA2 IC50): 300

O=C(CCCCCCN(Cc1ccc2ccccc2c1)Cc1ccc2ccccc2c1)NO
selectivity ratio (HDAC3 (Homo sapiens, UniProt O15379); reference: IC50 HDAC3 over HDAC1): 0.86

OCC1C(O)C(O)C(O)CN1CC(F)(F)CCCOCc1ccc(-c2ccccc2)cc1 (centres unmarked)
selectivity ratio (GBA2; reference: GBA1 IC50 over GBA2 IC50): 250000

NC(N)=NC(=O)N1CCc2c(F)ccc(-c3c(F)cc(F)cc3F)c2C1
selectivity ratio (HTR7 (Homo sapiens, UniProt P34969); radioligand binding; reference: Ki HTR7 over Ki 5-HT5A receptor): 2.6 fold

OC[C@H]1[C@@H](O)[C@H](O)[C@@H](O)CN1CCCCCOCCc1ccsc1
selectivity ratio (GBA2; reference: GBA1 IC50 over GBA2 IC50): 205000

NCCCCNC(=O)[C@H](Cc1ccccc1)NC(=O)N1CCc2ccccc2C1
selectivity ratio (Mc1r (Mus musculus, UniProt Q01727); agonist, β-galactosidase reporter; reference: Mc1r over mouse MC4R): 5 fold

Some of these lines once more:
NCCCCNC(=O)[C@H](Cc1ccccc1)NC(=O)N1CCc2ccccc2C1
selectivity ratio (Mc1r (Mus musculus, UniProt Q01727); agonist, β-galactosidase reporter; reference: Mc1r over mouse MC4R): 5 fold

OC[C@H]1[C@@H](O)[C@H](O)[C@@H](O)CN1CCCCCOCc1ccc(Br)cc1
selectivity ratio (GBA2; reference: GCS IC50 over GBA2 IC50): 84
